# Experimental data gathered from unrelated publications.
# Each line is one published result; not all experiments were run side by side. Numbers after ± are the reported error.
# Cell line: A549
SMILES,test,setting,scale,measurement,value
N#C[Se]CCCCCCOc1ccc2c(-c3ccccc3)cc(=O)oc2c1,"cell growth or viability, SRB",,,GI50,22 µM
C[C@H]1O[C@@H]2C3=C(O[C@]2(C)[C@@]1(O)C=O)C(=O)c1c(O)cccc1C3=O,"cell growth or viability, MTT",48 h,,EC50,10.6 µM
NC1=C(Cl)C(=O)c2ccccc2C1=O,MTT,,relative to: IC50 MRC-5 over IC50 A549,selectivity index,1.13
O=C(/C=C/c1ccccc1)Nc1cc(-c2ccnc(N3CCC(CO)CC3)c2)ccn1,"cell growth or viability, MTT",5 µM,,inhibition,69.2%
CCCCCCCCCCCCCCCCCCOc1ccccc1CCOP(=O)([O-])OCC[N+](C)(C)C,"cell growth or viability, SRB",10 µM,,inhibition,38.6%
CCN(C(=O)c1cc(F)ccc1Oc1nncnc1N1CCC2(C1)CN([C@H](CCCN(C)CCOC)C(C)C)C2)C(C)C,cell growth or viability,72 h,,GI50,> 10 µM
CCCC[N+]1=c2cc3c4cc2[O][Mn-2]1(=[C]=O)(=[C]=O)(=[C]=O)[n+]1ccc(cc1)C(=O)NCCNC(=O)c1cc[n+](cc1)[Mn-2](=[C]=O)(=[C]=O)(=[C]=O)([O]3)[N+]=4CCCC,MTT,"50 µM, 48 h, photolysed compound",,viability reduction,93%
Cc1cc(/C=C/c2ccc(O)c(O)c2)[nH]n1,PI staining flow cytometry,"50 µM, 48 h",,cells in S phase,6.07%
N#CSCCCCCCOc1ccc2c(-c3ccccc3)cc(=O)oc2c1,"cell growth or viability, SRB",,,GI50,24 µM
O=[C]=[Mn-2]12(=[C]=O)(=[C]=O)[O]c3cc4c(cc3=[N+]1CCc1ccccc1)[O][Mn-2](=[C]=O)(=[C]=O)(=[C]=O)([N+]=4CCc1ccccc1)[n+]1ccc(cc1)C(=O)OCCOC(=O)c1cc[n+]2cc1,MTT,"50 µM, 48 h, photolysed compound",,viability reduction,89%
CN(C)CCN1CCN(c2ccc3nc(-c4ccc5nc(-c6ccc(C(F)(F)F)cc6)[nH]c5c4)[nH]c3c2)CC1,SRB,"10 µM, 48 h",,growth percent,83.8%
O=[C]=[Mn-2]12(=[C]=O)(=[C]=O)[O]c3cc4c(cc3=[N+]1CCc1ccccc1)[O][Mn-2](=[C]=O)(=[C]=O)(=[C]=O)([N+]=4CCc1ccccc1)[n+]1ccc(cc1)C(=O)Oc1ccccc1OC(=O)c1cc[n+]2cc1,MTT,"50 µM, 48 h, photolysed compound",,viability reduction,87%
C1=[N+]2CCCC[N+]3=Cc4ccc5[n]4[Au-]23[n]2c1ccc2-c1nc2ccccc2nc1-5.F[P-](F)(F)(F)(F)F,NCI60 five-dose screen,,,TGI,4 -log M
COc1cc(/C=C/c2cc(C)n[nH]2)ccc1O,PI staining flow cytometry,"50 µM, 48 h",,cells in pre-G1 phase,16.5%
Nc1ccc[n+]([Pt-2]([Cl])([Cl])[n+]2cccc(N)c2Cl)c1Cl,"cell viability, MTT",24 h,,IC25,34.3 µM
COc1c(C)c(OS(=O)(=O)c2ccccc2)c(C)c2c1C(=O)CC(c1ccccc1)O2 (centres unmarked),,,relative to: CL over A549,selectivity index,> 1.32
COc1cc(/C=C/C(=O)CC(C)=O)ccc1O,PI staining flow cytometry,"50 µM, 48 h",,cells in G2/M phase,25%
O=C(NCc1cc(F)cc(F)c1)[C@@]1(O)CCN(c2ccc3[nH]ccc3c2)C1=O,"colony formation, soft agar clonogenic",concentration not given,,efficacy,44%
CC(C)(COP(=O)(O)OP(=O)(O)OC[C@H]1O[C@@H](n2cnc3c(N)ncnc32)[C@H](O)[C@@H]1OP(=O)(O)O)[C@@H](O)C(=O)NCCC(=O)NCCSCCC(=O)N[C@@H](CO)C(=O)NCC(=O)N[C@@H](CCCNC(=N)N)C(=O)NCC(=O)N[C@@H](CCCCN)C(=O)NCCCC[C@H](NC(=O)CC[C@@H]1NC(=O)[C@@H](CCCNC(=N)N)NC(=O)[C@H](CCCNC(=N)N)NC(=O)[C@@H](CCCNC(=N)N)NC(=O)[C@H](CCCNC(=N)N)NC(=O)[C@H](Cc2csc3ccccc23)NC(=O)[C@@H](Cc2ccccc2)NC(=O)[C@H](Cc2ccccc2)NC1=O)C(N)=O,"histone H4 Nα-acetylation, Western blot, refers to: histone H4 Nα-acetylation",2 days,,EC50,3.6 µM
COC(=O)c1cc(NC2=NC(=O)C(=Cc3ccc(N(C)C)cc3)S2)ccc1OC(C)=O,refers to: TNFRSF10C,"2.93 µM, 24 h",relative to: DMSO,mRNA level,802 fold change
NC1=C(Cl)C(=O)c2cccc([N+](=O)[O-])c2C1=O,MTT,,relative to: IC50 MRC-5 over IC50 A549,selectivity index,0.36
COc1c(C)c(OS(=O)(=O)c2ccccc2)c(C)c(O)c1C(=O)/C=C/c1ccccc1,,,relative to: CL over A549,selectivity index,1.1
CCNc1cc2c(cc1C)C1(c3cc(C)c(NCC)cc3O2)c2ccccc2C(=O)N1N=Cc1c[c-]c(-c2ccccn2)cc1.Cc1c(C)c(-c2ccc(-c3ccccc3)cc2)[c-](C)c1C.[Cl-].[Ir+3],PI flow cytometry,"0.5 x IC50, 24 h",,G2/M phase cells,12.91 ± 0.01%

# A few entries again:
SMILES,test,setting,scale,measurement,value
C1=[N+]2CCCC[N+]3=Cc4ccc5[n]4[Au-]23[n]2c1ccc2-c1nc2ccccc2nc1-5.F[P-](F)(F)(F)(F)F,NCI60 five-dose screen,,,TGI,4 -log M
COc1cc(/C=C/c2cc(C)n[nH]2)ccc1O,PI staining flow cytometry,"50 µM, 48 h",,cells in pre-G1 phase,16.5%
